Measured values from different studies.
± marks the error that the study gave.

SMILES | cell line | assay | conditions | how to read | measurement | result
O=Cc1c(O)ccc2ccccc12 | HUVEC | RNA sequencing, item: ZNF367 | 75 µM, 24 h | relative to: DMSO | log2 fold change | -3.52
C(=C/c1ccccc1)/c1ccccc1 | cord blood CD34+ cells | caspase-3 activity, flow cytometry | 24 h |  | EC50 | > 50 µM
COc1cc(CNC(=O)C[C@H](C)CCC=C(C)C)ccc1OCc1cn(-c2ccccc2F)nn1 | NCI-H322M | SRB | 10 µM, 48 h |  | growth percent | 92.7%
COC(=O)CCC(=O)Oc1ccc(/C=C/C(=O)CC(=O)/C=C/c2ccc(O)c(OC)c2)cc1OC | MHCC97H | Annexin V/PI flow cytometry | 10 µM, 24 h |  | apoptotic cells | 37.4 ± 1.56%
C[C@@H](O)[C@H](NC(=O)[C@H](CO)NC(=O)[C@H](CO)NC(=O)[C@@H](N)CCCCN)C(=O)N[C@@H](CCCNC(=N)N)C(=O)NCC(=O)N[C@@H](CCCNC(=N)N)C(=O)N[C@@H](CCCCN)C(=O)N[C@@H](CO)C(=O)N[C@@H](CO)C(=O)N[C@@H](CCCNC(=N)N)C(=O)N[C@@H](CCCNC(=N)N)C(=O)N[C@@H](CCCCN)C(=O)N[C@@H](CCCCN)C(=O)O | LAD2 | agonist | 10 µM, with: Pseudomonas aeruginosa LPS 100 µg/mL, 5 min preincubation |  | LPS effect on degranulation | no effect
CC/C=C\C/C=C\C/C=C\C/C=C\C/C=C\C/C=C\CCC(=O)Nc1ccn(C2OC(CO)C(O)C2(F)F)c(=O)n1 (stereo not shown) | UACC-257 | NCI60 screen |  |  | TGI | 22.9 µM
COC(=O)CC[C@@H](NC(=O)[C@@H](Cc1ccc(OP(=O)(O)O)cc1)NC(=O)[C@@H](Cc1ccccc1)NC(=O)[C@@H](Cc1ccccc1)NC(=O)Cc1ccc2ccccc2c1)C(=O)OC | SAOS-2 | MTT | 10 µM, with: alkaline phosphatase 10 U/mL |  | viability | 69%
COc1cc2c(cc1OC)CC(=O)N(C[C@H]1CCCN(CCOc3ccc(F)cc3)C1)CC2 | mouse VTA dopamine neurons | firing rate, cell-attached recording | 750 µM, 3 min |  | inhibition | 87.8%
C=CC(=O)N1C[C@H](C)N(c2nc(OC[C@@]34CCCN3C[C@H](F)C4)nc3c(F)c(-c4ccc(F)c5sc(N)c(C#N)c45)c(C(F)(F)F)cc23)C[C@H]1C | MEF expressing KRAS G13D | pERK |  | relative to: KRAS G12C over KRAS G13D | potency ratio | 5 to 10
CC(=C(c1ccc(O)cc1)c1ccc(Cl)cc1)c1ccc(Cl)cc1 | NCI-H322M | cell growth or viability, SRB |  |  | GI50 | 0.91 µM
COc1cc(CNC(=O)C[C@H](C)CCC=C(C)C)ccc1O | NCI-H322M | SRB | 10 µM, 48 h |  | growth percent | 91.1%
CC(=O)OC[C@H]1O[C@@H](Sc2sc(C(=O)c3ccc(C)cc3)c(N)c2-c2nc3ccccc3s2)[C@H](OC(C)=O)[C@@H](OC(C)=O)[C@@H]1OC(C)=O | NCI-H322M | SRB | 10 µM, 48 h | relative to: untreated | growth | 81.3%
COc1cc(CNC(=O)C[C@H](C)CCC=C(C)C)ccc1OCc1cn(-c2ccccc2Cl)nn1 | SN12C | SRB | 10 µM, 48 h |  | growth percent | 69.6%
CCCCCCCCC=CCCCCCCCC(=O)OCC1OC(n2ccc(N)nc2=O)C(F)(F)C1O (stereo not shown) | L1210/L5 (murine leukaemia) | cell growth, cell counting | 72 h | relative to: compound over gemcitabine, higher = less active | IC50 ratio | 1.7 fold
CO[C@H]1N(OC)c2ccccc2[C@@]12CN=C(Nc1cc(C(F)(F)F)cc(C(F)(F)F)c1)S2 (relative stereo) | HCT-116 | annexin V/PI flow cytometry | 40 µM, 72 h |  | early apoptotic cells | 30.2 ± 11.1%
COc1cc(CNC(=O)C[C@H](C)CCC=C(C)C)ccc1OCc1cn(-c2ccccc2)nn1 | SK-OV-3 ovarian cancer cells | SRB | 10 µM, 48 h |  | growth percent | 48%
N=C(N/N=C/c1cc2ccccc2[nH]1)N/N=C/c1cc2ccccc2[nH]1 | PANC-1 | crystal violet | 72 h | relative to: IC50 hTERT-HPNE over IC50 PANC-1 | selectivity ratio | 1.3
COc1cc(CNC(=O)C[C@H](C)CCC=C(C)C)ccc1OCc1cn(-c2ccc(Cl)c(Cl)c2)nn1 | SK-MEL-5 melanoma cells | SRB | 10 µM, 48 h |  | growth percent | 71.9%
CN(C)C/C=C(/c1ccc(Br)cc1)c1cccnc1 | hiPSC cardiac tissues 3D | active force | 15 min per concentration, paced at 1 Hz serum-free |  | minimum effective concentration | 10 µM

Excerpt of the above:
SMILES | cell line | assay | conditions | how to read | measurement | result
CN(C)C/C=C(/c1ccc(Br)cc1)c1cccnc1 | hiPSC cardiac tissues 3D | active force | 15 min per concentration, paced at 1 Hz serum-free |  | minimum effective concentration | 10 µM
